Assay results from different studies.
Each numbered part is a random draw from the data of one study; scales do not carry over between parts. Positions count from the first letter of the parent shown.
Chain of UniProt O15264 (whole entry, looked up): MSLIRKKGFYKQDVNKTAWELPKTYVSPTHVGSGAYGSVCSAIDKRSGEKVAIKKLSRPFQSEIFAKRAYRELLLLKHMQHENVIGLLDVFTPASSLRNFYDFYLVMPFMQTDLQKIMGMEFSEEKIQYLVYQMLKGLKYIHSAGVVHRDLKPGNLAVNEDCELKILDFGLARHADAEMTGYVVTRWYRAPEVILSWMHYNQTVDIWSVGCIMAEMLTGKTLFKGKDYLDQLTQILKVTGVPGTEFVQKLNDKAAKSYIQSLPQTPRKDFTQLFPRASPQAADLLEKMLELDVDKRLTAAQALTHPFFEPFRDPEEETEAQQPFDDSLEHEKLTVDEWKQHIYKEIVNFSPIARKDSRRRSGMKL

Sample 1
Target: CCNF, cyclin fold, Cln2 fusion (human)
Technique: yeast growth competition, sequencing
Medium: yeast
Notes: strong parent motif
Relative to: not given
Direction: higher = stronger binding
Parent: CDC6 docking peptide (human); TLKGRRLVFDNQL
`TLKGRRLVMDNQL [F9M]`: “normalised enrichment score” 6.92.
`TLKGRRLVFDMQL [N11M]` — result for “normalised enrichment score”: 8.51.
`ALKGRRLVFDNQL [T1A]` — result for “normalised enrichment score”: 8.39.
For `TLKGRRLIFDNQL [V8I]`, “normalised enrichment score” read 9.92.
Under “normalised enrichment score”, `TLKGDRLVFDNQL [R5D]` is recorded as -0.551.
Under “normalised enrichment score”, `TLKGRRLFFDNQL [V8F]` is recorded as 9.81.
`TLKGRRLVFHNQL [D10H]`: “normalised enrichment score” 8.13.
Under “normalised enrichment score”, `TLKGRRPVFDNQL [L7P]` is recorded as 0.468.

Sample 2
Target: PABPC1L2, full length, GST fusion (mouse, UniProt A0ABA7IW68)
Technique: RNAcompete
Form: RNA
Medium: in vitro
Tested at: 20 nM
Notes: 7-mer, probes averaged, single round
Relative to: mean of 7-mers
Direction: higher = stronger binding
Target sequence (chain): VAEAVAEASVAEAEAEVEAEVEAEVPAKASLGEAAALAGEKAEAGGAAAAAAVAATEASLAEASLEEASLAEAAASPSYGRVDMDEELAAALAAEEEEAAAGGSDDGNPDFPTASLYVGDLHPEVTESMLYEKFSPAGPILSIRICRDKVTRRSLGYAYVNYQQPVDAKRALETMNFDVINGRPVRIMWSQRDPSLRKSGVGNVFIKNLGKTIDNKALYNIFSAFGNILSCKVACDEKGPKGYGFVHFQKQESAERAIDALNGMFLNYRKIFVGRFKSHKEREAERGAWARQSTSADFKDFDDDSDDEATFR
For `UUAGCAA`, the 7-mer Z-score was 0.0859.
With `UUGCGGA` the 7-mer Z-score was -0.0699.
For `ACAAGAC`, the 7-mer Z-score was 0.345.
With `CCAACCU` the 7-mer Z-score was -0.253.
`CAAAGCU` gave a 7-mer Z-score of 0.0787.
The 7-mer Z-score of `ACGCCGG` is reported as -0.237.
The 7-mer Z-score of `ACAACCG` is reported as 0.00436.
`GCGCAAA` has a 7-mer Z-score of 0.816.

Sample 3
Target: TAR DNA-binding protein 43, full length, His tag (TARDBP, Homo sapiens, UniProt Q13148, residues 1-414)
Technique: RNA Bind-n-Seq
Form: RNA
Medium: in vitro
Tested at: 20 nM
Notes: 6-mer, flanks averaged, single round
With: 150 mM KCl
Relative to: input library
Direction: higher = stronger binding
Under “6-mer enrichment (R)”, `GUGCAA` is recorded as 0.938.
`AGAGCU`: “6-mer enrichment (R)” 0.79.
For `UAAAAA`, “6-mer enrichment (R)” read 0.883.
For `AGGGAC`, “6-mer enrichment (R)” read 2.17.
`CAGGGC` — result for “6-mer enrichment (R)”: 2.21.
`CGUGGC` — result for “6-mer enrichment (R)”: 1.37.
`CUUCGU`: “6-mer enrichment (R)” 0.561.
Under “6-mer enrichment (R)”, `UCCGGA` is recorded as 0.843.

Other studies, line by line
With N#CC(c1ccnc(NCCc2cccnc2)n1)c1nc2ccccc2s1 (stereo not shown) the remaining activity was 100% (Mitogen-activated protein kinase 13 (MAPK13, Homo sapiens, UniProt O15264); enzyme activity, inhibitor; 0.5 µM; relative to: control).

Repeated from above (other studies, line by line):
With N#CC(c1ccnc(NCCc2cccnc2)n1)c1nc2ccccc2s1 (stereo not shown) the remaining activity was 100% (Mitogen-activated protein kinase 13 (MAPK13, Homo sapiens, UniProt O15264); enzyme activity, inhibitor; 0.5 µM; relative to: control).
